Assay results collected from several papers.
Compare with care: the assays were run in different laboratories. ± gives the spread as reported.
C3ar1: C3a anaphylatoxin chemotactic receptor (C3ar1, Mus musculus, UniProt O09047)
Sequence of UniProt O09047 (whole entry, looked up): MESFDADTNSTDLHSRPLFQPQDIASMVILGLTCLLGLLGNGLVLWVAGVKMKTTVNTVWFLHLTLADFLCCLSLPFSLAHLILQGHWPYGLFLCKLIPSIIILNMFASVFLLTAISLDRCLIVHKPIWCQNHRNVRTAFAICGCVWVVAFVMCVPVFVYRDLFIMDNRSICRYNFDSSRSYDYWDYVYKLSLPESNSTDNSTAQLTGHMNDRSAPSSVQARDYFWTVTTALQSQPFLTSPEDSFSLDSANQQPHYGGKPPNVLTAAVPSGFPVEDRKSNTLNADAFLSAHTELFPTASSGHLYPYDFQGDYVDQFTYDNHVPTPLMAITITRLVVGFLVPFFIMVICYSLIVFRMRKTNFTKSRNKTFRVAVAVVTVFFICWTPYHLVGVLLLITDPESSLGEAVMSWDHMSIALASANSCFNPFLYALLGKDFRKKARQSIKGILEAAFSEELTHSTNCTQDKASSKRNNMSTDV
1-phosphatidylinositol 4,5-bisphosphate phosphodiesterase gamma-1 residues 21-1215: 1-phosphatidylinositol 4,5-bisphosphate phosphodiesterase gamma-1, residues 21-1215 (Rattus norvegicus, UniProt P10686)
Sequence of UniProt P10686 (21-1215, looked up): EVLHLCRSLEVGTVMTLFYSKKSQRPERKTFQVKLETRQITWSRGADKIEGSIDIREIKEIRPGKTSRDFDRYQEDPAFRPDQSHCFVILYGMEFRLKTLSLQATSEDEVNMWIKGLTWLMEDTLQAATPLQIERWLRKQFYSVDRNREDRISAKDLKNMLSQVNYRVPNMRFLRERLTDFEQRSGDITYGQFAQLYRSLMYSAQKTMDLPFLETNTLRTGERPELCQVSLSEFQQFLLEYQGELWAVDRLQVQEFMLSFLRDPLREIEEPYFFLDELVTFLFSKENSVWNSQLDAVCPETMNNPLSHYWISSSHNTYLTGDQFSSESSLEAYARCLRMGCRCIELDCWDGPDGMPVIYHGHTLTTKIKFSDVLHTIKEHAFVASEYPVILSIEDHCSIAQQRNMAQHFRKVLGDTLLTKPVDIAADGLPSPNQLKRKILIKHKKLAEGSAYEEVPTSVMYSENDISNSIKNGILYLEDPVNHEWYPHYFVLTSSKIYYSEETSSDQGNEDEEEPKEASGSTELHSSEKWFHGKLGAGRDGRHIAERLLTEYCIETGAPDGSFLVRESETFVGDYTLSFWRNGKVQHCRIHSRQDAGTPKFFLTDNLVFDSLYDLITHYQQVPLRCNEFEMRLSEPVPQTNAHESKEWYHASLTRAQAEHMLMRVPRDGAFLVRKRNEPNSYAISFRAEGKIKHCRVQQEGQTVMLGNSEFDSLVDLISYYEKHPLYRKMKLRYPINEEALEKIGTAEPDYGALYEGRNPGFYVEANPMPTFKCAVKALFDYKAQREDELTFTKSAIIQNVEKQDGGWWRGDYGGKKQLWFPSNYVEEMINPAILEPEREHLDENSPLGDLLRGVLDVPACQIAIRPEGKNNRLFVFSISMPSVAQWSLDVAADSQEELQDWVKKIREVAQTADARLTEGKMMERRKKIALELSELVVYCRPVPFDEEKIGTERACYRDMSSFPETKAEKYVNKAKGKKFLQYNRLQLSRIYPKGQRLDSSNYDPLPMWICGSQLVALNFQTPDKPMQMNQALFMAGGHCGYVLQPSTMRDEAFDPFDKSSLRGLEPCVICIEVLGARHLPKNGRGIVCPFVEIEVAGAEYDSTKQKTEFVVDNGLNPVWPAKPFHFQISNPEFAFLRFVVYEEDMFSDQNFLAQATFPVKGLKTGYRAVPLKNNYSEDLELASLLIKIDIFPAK
NTSR1: Neurotensin receptor type 1 (NTSR1, Homo sapiens, UniProt P30989)
Sequence of UniProt P30989 (whole entry, looked up): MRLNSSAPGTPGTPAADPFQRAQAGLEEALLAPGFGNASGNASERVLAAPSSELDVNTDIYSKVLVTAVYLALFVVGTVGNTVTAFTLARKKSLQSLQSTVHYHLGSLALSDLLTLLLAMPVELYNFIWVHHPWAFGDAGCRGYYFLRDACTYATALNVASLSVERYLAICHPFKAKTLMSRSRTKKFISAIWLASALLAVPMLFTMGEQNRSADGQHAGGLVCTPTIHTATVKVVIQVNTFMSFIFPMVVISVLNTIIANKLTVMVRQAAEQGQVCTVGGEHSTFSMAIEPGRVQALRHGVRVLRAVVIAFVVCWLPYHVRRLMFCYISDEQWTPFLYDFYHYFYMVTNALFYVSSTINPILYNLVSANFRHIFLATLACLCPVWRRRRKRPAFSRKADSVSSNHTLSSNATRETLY
Sequence of UniProt Q704Y3 (whole entry, unmodified, looked up): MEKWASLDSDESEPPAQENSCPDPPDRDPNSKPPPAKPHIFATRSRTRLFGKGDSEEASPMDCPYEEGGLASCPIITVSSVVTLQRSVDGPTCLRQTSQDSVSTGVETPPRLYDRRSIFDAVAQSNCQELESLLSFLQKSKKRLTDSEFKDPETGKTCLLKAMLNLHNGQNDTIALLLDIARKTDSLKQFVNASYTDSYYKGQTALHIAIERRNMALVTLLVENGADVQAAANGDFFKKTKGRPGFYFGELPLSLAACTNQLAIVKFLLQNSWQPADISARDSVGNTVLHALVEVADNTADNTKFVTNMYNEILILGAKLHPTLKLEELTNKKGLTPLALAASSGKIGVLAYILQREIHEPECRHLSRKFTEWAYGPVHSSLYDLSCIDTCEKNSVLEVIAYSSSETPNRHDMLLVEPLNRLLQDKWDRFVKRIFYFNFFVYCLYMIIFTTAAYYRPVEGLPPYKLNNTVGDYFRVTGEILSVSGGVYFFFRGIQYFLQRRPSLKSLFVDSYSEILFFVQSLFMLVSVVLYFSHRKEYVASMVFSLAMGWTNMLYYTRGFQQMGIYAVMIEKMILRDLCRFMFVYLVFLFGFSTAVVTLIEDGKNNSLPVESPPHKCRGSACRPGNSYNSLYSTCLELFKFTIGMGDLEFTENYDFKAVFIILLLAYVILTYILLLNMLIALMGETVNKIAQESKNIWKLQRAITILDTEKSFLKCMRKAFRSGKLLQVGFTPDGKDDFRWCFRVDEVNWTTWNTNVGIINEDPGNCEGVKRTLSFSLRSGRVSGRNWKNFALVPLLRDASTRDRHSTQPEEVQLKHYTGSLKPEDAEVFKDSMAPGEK
Sequence of UniProt Q00961 (whole entry, looked up): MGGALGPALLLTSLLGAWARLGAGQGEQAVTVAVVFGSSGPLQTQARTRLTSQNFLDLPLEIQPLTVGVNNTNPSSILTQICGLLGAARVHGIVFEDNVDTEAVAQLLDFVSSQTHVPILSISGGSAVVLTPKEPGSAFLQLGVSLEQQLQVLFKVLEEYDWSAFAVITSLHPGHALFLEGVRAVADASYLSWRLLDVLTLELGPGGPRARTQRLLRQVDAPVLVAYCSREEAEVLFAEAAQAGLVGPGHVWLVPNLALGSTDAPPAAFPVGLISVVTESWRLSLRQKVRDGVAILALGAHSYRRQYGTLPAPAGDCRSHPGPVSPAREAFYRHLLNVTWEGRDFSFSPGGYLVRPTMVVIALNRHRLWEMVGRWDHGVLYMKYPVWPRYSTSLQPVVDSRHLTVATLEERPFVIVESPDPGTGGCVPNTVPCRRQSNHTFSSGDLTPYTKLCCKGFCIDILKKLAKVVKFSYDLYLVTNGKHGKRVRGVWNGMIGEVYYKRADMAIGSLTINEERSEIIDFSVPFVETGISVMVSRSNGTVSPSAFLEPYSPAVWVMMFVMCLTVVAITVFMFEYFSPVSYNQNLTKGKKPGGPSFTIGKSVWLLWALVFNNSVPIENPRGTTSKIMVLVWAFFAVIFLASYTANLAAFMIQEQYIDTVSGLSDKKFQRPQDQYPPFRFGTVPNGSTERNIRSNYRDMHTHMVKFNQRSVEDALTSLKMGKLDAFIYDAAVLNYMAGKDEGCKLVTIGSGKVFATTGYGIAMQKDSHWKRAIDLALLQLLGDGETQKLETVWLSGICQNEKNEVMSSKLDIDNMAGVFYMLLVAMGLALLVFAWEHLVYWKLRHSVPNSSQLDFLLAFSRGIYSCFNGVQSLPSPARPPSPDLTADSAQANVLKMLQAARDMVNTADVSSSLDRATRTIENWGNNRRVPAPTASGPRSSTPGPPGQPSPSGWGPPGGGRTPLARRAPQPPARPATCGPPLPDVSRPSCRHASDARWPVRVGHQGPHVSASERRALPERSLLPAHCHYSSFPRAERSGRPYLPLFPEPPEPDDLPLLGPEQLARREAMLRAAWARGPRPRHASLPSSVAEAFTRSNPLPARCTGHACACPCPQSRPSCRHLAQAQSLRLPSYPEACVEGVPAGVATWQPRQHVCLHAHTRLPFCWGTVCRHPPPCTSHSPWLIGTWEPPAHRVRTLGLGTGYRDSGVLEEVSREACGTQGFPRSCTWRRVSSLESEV
Sequence of UniProt P41145 (whole entry, unmodified, looked up): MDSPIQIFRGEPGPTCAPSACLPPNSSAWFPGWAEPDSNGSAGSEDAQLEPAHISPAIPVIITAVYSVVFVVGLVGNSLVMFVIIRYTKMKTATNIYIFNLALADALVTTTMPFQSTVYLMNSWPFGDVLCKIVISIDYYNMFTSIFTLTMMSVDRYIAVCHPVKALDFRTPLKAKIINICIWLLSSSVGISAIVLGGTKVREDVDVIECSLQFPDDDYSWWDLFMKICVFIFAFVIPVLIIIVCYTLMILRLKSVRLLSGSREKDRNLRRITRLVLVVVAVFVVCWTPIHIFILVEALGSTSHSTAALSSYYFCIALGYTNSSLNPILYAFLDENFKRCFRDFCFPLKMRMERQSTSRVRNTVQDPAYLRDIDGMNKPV
Sequence of UniProt Q9UKP6 (whole entry, looked up): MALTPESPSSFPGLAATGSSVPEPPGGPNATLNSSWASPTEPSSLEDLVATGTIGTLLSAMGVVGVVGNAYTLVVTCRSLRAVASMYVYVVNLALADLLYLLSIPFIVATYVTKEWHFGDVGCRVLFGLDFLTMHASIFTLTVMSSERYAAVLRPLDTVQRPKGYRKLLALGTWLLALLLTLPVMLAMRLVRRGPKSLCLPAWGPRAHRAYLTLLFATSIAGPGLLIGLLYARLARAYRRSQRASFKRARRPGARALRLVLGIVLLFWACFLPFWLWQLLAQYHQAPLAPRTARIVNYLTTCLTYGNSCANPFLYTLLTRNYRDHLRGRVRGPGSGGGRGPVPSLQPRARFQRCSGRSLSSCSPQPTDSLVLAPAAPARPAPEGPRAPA

`CC(C)C[C@H](NC(=O)[C@@H](N)[C@@H](C)O)C(=O)N[C@@H](CCC(N)=O)C(=O)N1CCC[C@H]1C(=O)N1CCC[C@H]1C(=O)N[C@@H](C)C(=O)N[C@@H](CO)C(=O)N[C@@H](CO)C(=O)N[C@@H](CCCNC(=N)N)C(=O)N[C@@H](CCCNC(=N)N)C(=O)N[C@@H](CCCNC(=N)N)C(=O)N[C@@H](Cc1c[nH]cn1)C(=O)N[C@@H](Cc1ccccc1)C(=O)N[C@@H](Cc1c[nH]cn1)C(=O)N[C@@H](Cc1c[nH]cn1)C(=O)N[C@@H](C)C(=O)N[C@@H](CC(C)C)C(=O)N1CCC[C@H]1C(=O)N1CCC[C@H]1C(=O)N[C@@H](C)C(=O)N[C@@H](CCCNC(=N)N)C(=O)O` has an EC50 of 0.0288 µM (C3ar1; GoA protein dissociation, agonist, NanoBiT).
With `Cn1c(=O)n(C2CCC(=O)NC2=O)c2ccc(C3CCN(CC(=O)Nc4cccc(CS(=O)(=O)N5CC[C@H](Nc6cccc(-c7sc(C(=O)O)c(OCC(=O)O)c7Cl)c6)CC5(C)C)c4)CC3)cc21` (stereo partly drawn) the EC50 was > 10 µM (Phosphatidylinositol 3,4,5-trisphosphate 3-phosphatase and dual-specificity protein phosphatase PTEN (PTEN, Homo sapiens, UniProt P60484); phosphatase activity; with: DiFMUP substrate).
`Cc1cc(C)c(S(=O)(=O)Nc2cccc(C(F)(F)F)c2)c(C)c1` gave an EC50 of > 100 µM (1-phosphatidylinositol 4,5-bisphosphate phosphodiesterase gamma-1 residues 21-1215; enzyme activity, activator; lipid vesicles; 15 min preincubation, with: XY-69 substrate 0.5 µM).
The IC50 of `COc1ccc(C2=Nn3c(nnc3C3CCCCC3)SC2)cc1OC` is reported as 98.8 µM (Uncharacterized protein (Trypanosoma brucei brucei, UniProt Q386Q8); inhibitor, coupled colorimetric; Trypanosoma brucei).
The EC50 of `CC(C)[C@H](NC(=O)[C@@H]1CSSC(C)(C)[C@H](NC(=O)[C@@H](N)CC(=O)O)C(=O)N[C@@H](Cc2ccccc2)C(=O)N[C@H](Cc2c[nH]c3ccccc23)C(=O)N[C@@H](CCCN)C(=O)N[C@@H](Cc2ccc(O)cc2)C(=O)N1)C(=O)O` is reported as 0.0033 ± 0.003 µM (Urotensin-2 receptor (UTS2R, Homo sapiens, UniProt Q9UKP6); β-arrestin1 recruitment, agonist, BRET2; HEK293; 10 min).
For `COc1ccccc1C1CCN(c2nc(C3CCCC3)nc3ccc(N(C)CCO)cc23)CC1`, the EC50 was 15.1 µM (NTSR1; β-arrestin recruitment, agonist).
For `O=c1ccn([C@@H]2O[C@H](COP(=O)(O)CP(=O)(O)O)[C@@H](O)[C@H]2O)c(=S)[nH]1`, the EC50 was 0.241 µM (P2Y purinoceptor 14 (P2RY14, Homo sapiens, UniProt Q15391, D81A); calcium mobilisation, agonist; cells with Gαqi5; receptor mutant D81A).
The EC50 of `COc1ccccc1C1CCN(c2nc(C3CC3)nc3c(C)cc(N(C)CCO)cc23)CC1` is reported as 9.6 µM (NTSR1; β-arrestin recruitment, agonist).
`Cn1c(=O)[nH]c(=O)c2c1nc(CN1CCN(c3cccc(Cl)c3)CC1)n2Cc1cccc(Cl)c1` has an EC50 of 28 µM (1-phosphatidylinositol 4,5-bisphosphate phosphodiesterase gamma-1 residues 21-1215; enzyme activity, activator; lipid vesicles; 15 min preincubation, with: XY-69 substrate 0.5 µM).
With `COc1cc(C2C(NC(=O)c3ccc(NC(=O)OC(C)(C)C)cc3)(C(=O)O)C(c3ccc(OC(=O)c4cccs4)c(OC)c3)C2(NC(=O)c2ccc(NC(=O)OC(C)(C)C)cc2)C(=O)O)ccc1OC(=O)c1cccs1` (stereo not drawn) the EC50 was 0.0105 µM (Glucagon-like peptide 1 receptor (GLP1R, Homo sapiens, UniProt P43220, V194A); cAMP, agonist).
For `COc1ccccc1C1CCN(c2nc(C3(F)CC3)nc3c(Cl)cc(N(C)CCO)cc23)CC1`, the EC50 was 3.64 µM (NTSR1; β-arrestin recruitment, agonist).
`O=C(NC[C@@H](Cc1ccc(F)cc1)N1CCC(O)(C(F)(F)F)CC1)C1(c2ccc(Cl)cc2)CCCC1` has an EC50 of 5.3 µM (Transient receptor potential cation channel subfamily A member 1 (TRPA1, Homo sapiens, UniProt O75762, V875P)).
With `N[C@@H](Cc1c[nH]c2ccc(OCc3ccc(-c4ccccc4)cc3)cc12)C(=O)O` the EC50 was 19.2 µM (Large neutral amino acids transporter small subunit 1 (SLC7A5, Homo sapiens, UniProt Q01650); leucine uptake; HT-29; with: [3H]-L-leucine).
For `CC(C)C[C@H](NC(=O)[C@H](C)NC(=O)[C@H](CO)NC(=O)[C@@H]1CCCN1C(=O)[C@@H]1CCCN1C(=O)[C@H](CCC(N)=O)NC(=O)[C@H](CC(C)C)NC(=O)[C@@H](N)[C@@H](C)O)C(=O)N[C@@H](CCCNC(=N)N)C(=O)N[C@@H](CCCNC(=N)N)C(=O)N[C@@H](CCCNC(=N)N)C(=O)N[C@@H](Cc1c[nH]cn1)C(=O)N[C@@H](Cc1ccc(O)cc1)C(=O)N[C@@H](Cc1c[nH]cn1)C(=O)N[C@@H](Cc1c[nH]cn1)C(=O)N[C@@H](C)C(=O)N[C@@H](CC(C)C)C(=O)N1CCC[C@H]1C(=O)N1CCC[C@H]1C(=O)N[C@@H](CO)C(=O)N[C@@H](CCCNC(=N)N)C(=O)O`, the EC50 was 0.214 µM (C3ar1; GoA protein dissociation, agonist, NanoBiT).
The EC50 of `COc1ccccc1C1CCN(c2nc(C3(F)CC3)nc3cnc(N(C)CCO)cc23)CC1` is reported as 13 µM (NTSR1; β-arrestin recruitment, agonist).
The EC50 of `CCCCCCCC/C=C\CCCCCCCC(=O)NCCO` is reported as 0.36 ± 0.22 µM (Transient receptor potential cation channel subfamily V member 1 (Trpv1, Mus musculus, UniProt Q704Y3, S511T); ion current, agonist, whole-cell patch clamp; 24 °C, S511T, +80 mV).
`COc1ccc(OC[C@H]2c3cccn3CC(=O)N2Cc2cccc(F)c2)cc1` gave an EC50 of 0.8 µM (Glutamate NMDA receptor; Grin1/Grin2c (Rattus norvegicus, UniProt P35439+Q00961); activator; cells).
For `COc1cc2nc(Cc3ccccc3)nc(N3CCN(c4ccccc4OC)CC3)c2cc1OC`, the EC50 was 158 µM (NTSR1; β-arrestin recruitment, agonist).
The EC50 of `O=C(O)Cc1ccccc1Nc1c(Cl)cccc1Cl` is reported as 49 µM (1-phosphatidylinositol 4,5-bisphosphate phosphodiesterase gamma-1 residues 21-1215; enzyme activity, activator; lipid vesicles; 15 min preincubation, with: XY-69 substrate 0.5 µM).
The EC50 of `Nc1ncnc2c1ncn2[C@@H]1O[C@H](COP(=O)(O)OP(=O)(O)OC[C@H]2OC(O)[C@H](O)[C@@H]2O)[C@@H](O)[C@H]1OP(=O)(O)O` (stereo partly drawn) is reported as 0.19 ± 0.008 µM (TRPM2 (Nematostella vectensis, UniProt A7T1N0, E101C); agonist).
`COc1cc2nc(C3(C)CC3)nc(N3CCC(c4ccccc4OC)CC3)c2cc1OC` has an EC50 of 7.56 µM (NTSR1; β-arrestin recruitment, agonist).
`COc1ccccc1C1CCN(c2nc(C3(F)CCCC3)nc3ccc(N(C)CCO)cc23)CC1` has an EC50 of 13.1 µM (NTSR1; β-arrestin recruitment, agonist).
For `Cc1cc(C)cc([C@@H]2CCCN2Cc2ccc(Oc3ccc(C(N)=O)cc3F)cc2)c1`, the EC50 was 0.29 µM (Kappa-type opioid receptor (OPRK1, Homo sapiens, UniProt P41145, I135L); agonist).
`COc1ccccc1C1CCN(c2nc(C#CC3CC3)nc3ccc(N(C)CCO)cc23)CC1` gave an EC50 of ~15600 µM (NTSR1; β-arrestin recruitment, agonist).
The EC50 of `COc1ccc(C(=O)c2c(C(=O)NCCCN(C)C)oc3ccc(Cl)cc3c2=O)cc1OC` is reported as 0.0398 µM (Growth hormone secretagogue receptor type 1 (GHSR, Homo sapiens, UniProt Q92847); calcium signal, agonist).
`COc1cc2nc(C3CC3)nc(N3CCC(c4ccccc4OC)CC3)c2cc1OC` has an EC50 of 13 µM (NTSR1; β-arrestin recruitment, agonist).
With `CC(=O)C1=C(c2ccc(OC(F)F)cc2)N(C(C)=O)n2cnnc2S1` the IC50 was 46.1 µM (Inorganic pyrophosphatase (ppa, Escherichia coli, UniProt P0A7A9); inhibitor, counter-screen, coupling enzyme alone).

Repeated from above:
For `COc1ccccc1C1CCN(c2nc(C3CCCC3)nc3ccc(N(C)CCO)cc23)CC1`, the EC50 was 15.1 µM (NTSR1; β-arrestin recruitment, agonist).
`O=C(NC[C@@H](Cc1ccc(F)cc1)N1CCC(O)(C(F)(F)F)CC1)C1(c2ccc(Cl)cc2)CCCC1` has an EC50 of 5.3 µM (Transient receptor potential cation channel subfamily A member 1 (TRPA1, Homo sapiens, UniProt O75762, V875P)).
`Cn1c(=O)[nH]c(=O)c2c1nc(CN1CCN(c3cccc(Cl)c3)CC1)n2Cc1cccc(Cl)c1` has an EC50 of 28 µM (1-phosphatidylinositol 4,5-bisphosphate phosphodiesterase gamma-1 residues 21-1215; enzyme activity, activator; lipid vesicles; 15 min preincubation, with: XY-69 substrate 0.5 µM).
The EC50 of `COc1ccccc1C1CCN(c2nc(C3CC3)nc3c(C)cc(N(C)CCO)cc23)CC1` is reported as 9.6 µM (NTSR1; β-arrestin recruitment, agonist).
